Measured values of several laboratories.
Every numbered part comes from another study and shows a few of its results, in no order.
UniProt P30291, sequence (whole entry, looked up): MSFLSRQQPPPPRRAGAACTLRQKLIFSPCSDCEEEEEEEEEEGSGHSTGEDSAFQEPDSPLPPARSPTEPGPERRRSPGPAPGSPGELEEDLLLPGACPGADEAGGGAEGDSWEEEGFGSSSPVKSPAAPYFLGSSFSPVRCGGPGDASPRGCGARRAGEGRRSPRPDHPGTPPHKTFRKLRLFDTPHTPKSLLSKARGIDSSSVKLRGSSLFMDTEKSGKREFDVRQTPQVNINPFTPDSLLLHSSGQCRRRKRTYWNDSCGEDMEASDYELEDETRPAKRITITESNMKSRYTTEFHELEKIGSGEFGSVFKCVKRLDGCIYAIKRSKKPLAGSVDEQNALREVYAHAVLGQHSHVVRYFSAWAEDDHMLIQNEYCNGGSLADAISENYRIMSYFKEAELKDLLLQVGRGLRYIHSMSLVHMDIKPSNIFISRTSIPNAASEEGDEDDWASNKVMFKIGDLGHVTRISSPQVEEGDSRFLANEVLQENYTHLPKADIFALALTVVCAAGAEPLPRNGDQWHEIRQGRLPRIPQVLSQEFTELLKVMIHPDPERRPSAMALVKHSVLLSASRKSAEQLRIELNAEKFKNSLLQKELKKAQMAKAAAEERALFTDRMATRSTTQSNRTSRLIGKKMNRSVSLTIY
UniProt Q9BWU1, sequence (whole entry, looked up): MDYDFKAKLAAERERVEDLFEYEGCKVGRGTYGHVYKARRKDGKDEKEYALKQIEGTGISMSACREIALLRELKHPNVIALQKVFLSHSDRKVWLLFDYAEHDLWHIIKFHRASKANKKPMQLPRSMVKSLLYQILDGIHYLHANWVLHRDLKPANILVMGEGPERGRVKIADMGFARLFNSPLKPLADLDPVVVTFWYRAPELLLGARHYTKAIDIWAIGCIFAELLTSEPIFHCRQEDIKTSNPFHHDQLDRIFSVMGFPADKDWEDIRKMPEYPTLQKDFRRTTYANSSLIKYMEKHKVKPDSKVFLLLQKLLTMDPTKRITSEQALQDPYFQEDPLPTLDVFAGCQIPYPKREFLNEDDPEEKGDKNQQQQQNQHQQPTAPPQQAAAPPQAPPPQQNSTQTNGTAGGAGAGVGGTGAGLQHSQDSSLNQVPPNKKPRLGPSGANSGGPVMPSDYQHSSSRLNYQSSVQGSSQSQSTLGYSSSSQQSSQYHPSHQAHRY
UniProt Q9NSY1, sequence (whole entry, looked up): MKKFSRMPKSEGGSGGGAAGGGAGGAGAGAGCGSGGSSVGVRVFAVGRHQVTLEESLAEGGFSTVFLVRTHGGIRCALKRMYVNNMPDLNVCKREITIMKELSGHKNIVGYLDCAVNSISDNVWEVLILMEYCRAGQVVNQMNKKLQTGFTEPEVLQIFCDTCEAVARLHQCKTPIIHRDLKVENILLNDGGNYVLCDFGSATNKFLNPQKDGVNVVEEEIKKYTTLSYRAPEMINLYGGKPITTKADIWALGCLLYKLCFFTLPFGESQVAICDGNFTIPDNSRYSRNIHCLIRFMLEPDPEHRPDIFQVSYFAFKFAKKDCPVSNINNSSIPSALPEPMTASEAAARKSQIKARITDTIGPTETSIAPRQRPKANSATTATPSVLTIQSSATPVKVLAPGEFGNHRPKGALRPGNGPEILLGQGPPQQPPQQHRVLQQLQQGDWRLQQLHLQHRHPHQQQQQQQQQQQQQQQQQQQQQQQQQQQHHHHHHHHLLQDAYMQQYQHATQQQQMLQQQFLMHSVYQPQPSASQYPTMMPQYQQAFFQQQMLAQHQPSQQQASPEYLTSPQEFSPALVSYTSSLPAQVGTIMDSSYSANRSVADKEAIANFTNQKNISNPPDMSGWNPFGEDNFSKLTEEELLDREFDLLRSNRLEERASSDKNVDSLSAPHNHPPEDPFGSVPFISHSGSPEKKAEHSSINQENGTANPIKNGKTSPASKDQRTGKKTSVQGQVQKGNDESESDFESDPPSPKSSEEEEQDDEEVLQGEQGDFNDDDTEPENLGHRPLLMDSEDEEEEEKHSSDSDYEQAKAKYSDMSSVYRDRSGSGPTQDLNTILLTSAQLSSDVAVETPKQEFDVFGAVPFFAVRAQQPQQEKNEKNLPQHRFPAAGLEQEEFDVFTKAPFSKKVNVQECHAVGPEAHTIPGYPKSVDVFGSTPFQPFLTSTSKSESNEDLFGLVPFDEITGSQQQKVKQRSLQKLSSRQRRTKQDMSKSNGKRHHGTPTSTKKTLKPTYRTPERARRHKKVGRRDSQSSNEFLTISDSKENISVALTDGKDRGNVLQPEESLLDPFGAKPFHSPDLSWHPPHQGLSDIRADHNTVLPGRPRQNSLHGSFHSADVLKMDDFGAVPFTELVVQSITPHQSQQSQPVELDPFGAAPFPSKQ
UniProt P29597, sequence (whole entry, looked up): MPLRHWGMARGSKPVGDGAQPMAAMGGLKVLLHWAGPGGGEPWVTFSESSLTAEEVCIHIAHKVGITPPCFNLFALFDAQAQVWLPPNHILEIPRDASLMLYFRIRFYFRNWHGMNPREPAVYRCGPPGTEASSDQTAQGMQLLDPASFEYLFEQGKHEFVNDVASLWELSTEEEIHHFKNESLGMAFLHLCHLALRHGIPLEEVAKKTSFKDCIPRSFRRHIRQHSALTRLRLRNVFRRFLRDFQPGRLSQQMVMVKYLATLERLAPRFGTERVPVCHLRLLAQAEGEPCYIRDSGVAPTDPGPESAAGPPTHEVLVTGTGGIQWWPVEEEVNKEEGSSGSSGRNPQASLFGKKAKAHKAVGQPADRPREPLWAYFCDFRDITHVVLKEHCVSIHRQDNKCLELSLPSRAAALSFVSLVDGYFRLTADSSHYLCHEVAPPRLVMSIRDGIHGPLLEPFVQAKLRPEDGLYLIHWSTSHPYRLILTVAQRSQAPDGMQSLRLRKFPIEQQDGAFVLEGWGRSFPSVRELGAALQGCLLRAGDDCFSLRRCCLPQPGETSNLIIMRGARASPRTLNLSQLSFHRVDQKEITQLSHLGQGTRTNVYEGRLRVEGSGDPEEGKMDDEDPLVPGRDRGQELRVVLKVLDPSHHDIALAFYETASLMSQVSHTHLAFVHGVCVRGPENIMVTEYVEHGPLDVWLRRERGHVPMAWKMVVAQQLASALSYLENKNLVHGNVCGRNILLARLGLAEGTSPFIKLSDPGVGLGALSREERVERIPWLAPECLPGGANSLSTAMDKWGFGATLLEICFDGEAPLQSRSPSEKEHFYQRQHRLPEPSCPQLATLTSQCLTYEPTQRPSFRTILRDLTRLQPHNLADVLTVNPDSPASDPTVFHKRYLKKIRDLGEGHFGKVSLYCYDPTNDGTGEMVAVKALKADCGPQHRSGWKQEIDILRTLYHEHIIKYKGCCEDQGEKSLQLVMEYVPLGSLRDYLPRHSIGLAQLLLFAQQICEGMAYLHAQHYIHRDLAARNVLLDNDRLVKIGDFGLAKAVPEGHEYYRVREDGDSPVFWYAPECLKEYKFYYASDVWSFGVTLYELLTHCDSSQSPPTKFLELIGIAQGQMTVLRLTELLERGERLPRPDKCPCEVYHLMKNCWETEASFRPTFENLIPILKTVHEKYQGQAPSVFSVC
UniProt Q9H2K8, sequence (whole entry, looked up): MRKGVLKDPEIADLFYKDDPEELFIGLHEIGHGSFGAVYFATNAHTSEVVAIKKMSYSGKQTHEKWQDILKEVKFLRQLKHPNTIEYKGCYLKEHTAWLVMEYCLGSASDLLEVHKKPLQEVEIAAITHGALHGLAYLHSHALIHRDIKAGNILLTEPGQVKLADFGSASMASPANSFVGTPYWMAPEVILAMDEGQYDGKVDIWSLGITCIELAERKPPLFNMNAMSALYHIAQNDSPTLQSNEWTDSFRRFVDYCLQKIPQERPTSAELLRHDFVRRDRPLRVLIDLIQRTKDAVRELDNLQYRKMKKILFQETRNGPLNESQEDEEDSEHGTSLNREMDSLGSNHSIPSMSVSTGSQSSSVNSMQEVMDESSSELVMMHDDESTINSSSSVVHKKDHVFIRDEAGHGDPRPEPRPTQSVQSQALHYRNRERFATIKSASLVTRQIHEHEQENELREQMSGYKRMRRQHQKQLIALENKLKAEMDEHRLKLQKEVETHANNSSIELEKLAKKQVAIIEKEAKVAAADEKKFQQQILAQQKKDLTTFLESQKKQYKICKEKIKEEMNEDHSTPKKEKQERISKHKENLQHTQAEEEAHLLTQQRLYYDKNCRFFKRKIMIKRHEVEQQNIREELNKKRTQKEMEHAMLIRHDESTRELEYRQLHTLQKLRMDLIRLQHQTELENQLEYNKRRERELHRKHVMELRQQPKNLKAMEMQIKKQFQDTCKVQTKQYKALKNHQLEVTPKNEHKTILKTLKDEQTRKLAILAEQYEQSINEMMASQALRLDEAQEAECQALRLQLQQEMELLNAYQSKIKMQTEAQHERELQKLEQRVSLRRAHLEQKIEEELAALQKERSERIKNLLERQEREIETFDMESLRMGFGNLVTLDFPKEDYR
UniProt P42681, sequence (whole entry, looked up): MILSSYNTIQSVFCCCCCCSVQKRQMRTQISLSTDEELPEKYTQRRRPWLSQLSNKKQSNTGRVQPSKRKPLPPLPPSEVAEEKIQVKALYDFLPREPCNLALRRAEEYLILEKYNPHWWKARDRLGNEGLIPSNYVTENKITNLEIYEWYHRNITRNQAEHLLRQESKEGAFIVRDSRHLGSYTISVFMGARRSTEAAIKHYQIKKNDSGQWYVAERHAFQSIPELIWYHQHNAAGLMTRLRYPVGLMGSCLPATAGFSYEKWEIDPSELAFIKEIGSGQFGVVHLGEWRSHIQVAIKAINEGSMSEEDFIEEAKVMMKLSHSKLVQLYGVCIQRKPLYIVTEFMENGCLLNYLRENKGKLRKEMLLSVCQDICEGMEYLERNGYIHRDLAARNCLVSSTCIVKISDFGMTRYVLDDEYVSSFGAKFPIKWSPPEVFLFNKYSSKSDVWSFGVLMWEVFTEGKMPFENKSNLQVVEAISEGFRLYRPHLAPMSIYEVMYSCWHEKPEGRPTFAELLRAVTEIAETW

Series 1
Target: Homeodomain-interacting protein kinase 4 (HIPK4, Homo sapiens, UniProt Q8NE63)
Effect on: enzyme activity
Action: inhibitor
Tested at: 0.5 µM
Relative to: control
Construct (Q8NE63 1-616): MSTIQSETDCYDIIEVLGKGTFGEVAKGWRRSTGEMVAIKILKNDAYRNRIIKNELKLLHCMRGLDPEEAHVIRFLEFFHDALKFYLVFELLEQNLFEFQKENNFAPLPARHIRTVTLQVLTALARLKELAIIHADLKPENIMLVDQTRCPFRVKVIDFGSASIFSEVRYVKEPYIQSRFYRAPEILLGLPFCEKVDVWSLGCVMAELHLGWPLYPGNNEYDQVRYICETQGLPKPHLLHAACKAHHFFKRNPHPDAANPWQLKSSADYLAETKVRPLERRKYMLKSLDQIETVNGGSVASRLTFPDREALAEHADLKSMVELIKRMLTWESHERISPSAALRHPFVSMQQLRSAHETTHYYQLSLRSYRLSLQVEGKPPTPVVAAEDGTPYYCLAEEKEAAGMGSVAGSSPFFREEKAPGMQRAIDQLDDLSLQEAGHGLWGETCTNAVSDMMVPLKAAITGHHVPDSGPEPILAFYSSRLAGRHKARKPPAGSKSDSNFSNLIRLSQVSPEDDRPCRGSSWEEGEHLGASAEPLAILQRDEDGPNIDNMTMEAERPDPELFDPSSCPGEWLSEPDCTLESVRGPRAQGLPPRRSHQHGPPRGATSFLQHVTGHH
| SMILES | remaining activity [%] |
| --- | --- |
| O=C1Cc2c([nH]c3ccc(Br)cc23)-c2ccccc2N1 | 105 |
| O=C1Nc2ccc(Br)cc2/C1=C/c1cc2c([nH]1)CCCC2 | 104 |
| O=C1NC(=O)c2c1c1c3ccccc3[nH]c1n1cncc21 | 98.5 |

Series 2
Target: Sal-like protein 4, full length isoform B (SALL4, Homo sapiens, UniProt Q9UJQ4-2, residues 1-616)
Method: universal PBM
Form: double-stranded DNA, one strand shown
Sample: in vitro
Tested at: not given
Notes: 8-mer, flanks averaged, mean of replicates
Reading: higher = stronger binding
| Oligonucleotide | E-score |
| --- | --- |
| AATATAAG | 0.39 |
| CCCCCGCG | -0.348 |
| AAGAACGC | -0.0117 |
| GAAGCAAA | 0.0898 |
| ATTACGTC | 0.193 |
| CCATCTCG | -0.268 |
| GTTTAGTA | 0.228 |
| AGACCCCC | -0.314 |

Series 3
Structure (SMILES): CSc1cccnc1N1CCN(Cc2nc3ccccc3[nH]2)CC1
Tested at: 1 µM
| target | assay | remaining binding [%] |
| --- | --- | --- |
| WNK3 (Homo sapiens, UniProt Q9BYP7) | cell-free assay, competition with immobilised ligand | 100 |
| SRPK1 (Homo sapiens, UniProt Q96SB4) | cell-free assay, competition with immobilised ligand | 100 |
| AXL (Homo sapiens, UniProt P30530) | binding, competition with immobilised ligand | 100 |
| EPHA7 (Homo sapiens, UniProt Q15375) | cell-free assay, competition with immobilised ligand | 93 |
| Non-receptor tyrosine-protein kinase TYK2, JH1 (TYK2, Homo sapiens, UniProt P29597) | cell-free assay, competition with immobilised ligand | 100 |
| TAOK3 (Homo sapiens, UniProt Q9H2K8) | cell-free assay, competition with immobilised ligand | 93 |
| WEE1 (Homo sapiens, UniProt P30291) | cell-free assay, competition with immobilised ligand | 100 |
| BMP2K (Homo sapiens, UniProt Q9NSY1) | cell-free assay, competition with immobilised ligand | 100 |
| MAP2K4 (Homo sapiens, UniProt P45985) | cell-free assay, competition with immobilised ligand | 89 |
| FLT3 (Homo sapiens, UniProt P36888, D835V/ITD) | cell-free assay, competition with immobilised ligand | 73 |
| CDK19 (Homo sapiens, UniProt Q9BWU1) | competition binding | 96 |
| Ribosomal protein S6 kinase alpha-2, N-terminal kinase domain (RPS6KA2, Homo sapiens, UniProt Q15349) | cell-free assay, competition with immobilised ligand | 100 |
| TXK (Homo sapiens, UniProt P42681) | binding, competition with immobilised ligand | 100 |

Mixed results
| Molecule | tested on | assay | system | setting | endpoint | value |
| --- | --- | --- | --- | --- | --- | --- |
| PTPRB (Homo sapiens, UniProt P23467) | RAB13 (Homo sapiens, UniProt P51153) | cross-linking MS | cell fractions | added: DSSO | cross-linked residues | S305 to K55 |
| medroxyprogesterone | Sarcocystis neurona | parasite growth |  | 10 µM | inhibition | 13.7% |
| GPAT3 (Homo sapiens, UniProt Q53EU6) | CHP1 (Homo sapiens, UniProt Q99653) | cross-linking MS |  | hits only | interaction screen | cross-linked |
| SF3B2 (Homo sapiens, UniProt Q13435) | TRIR (Homo sapiens, UniProt Q9BQ61) | cross-linking MS | cell fractions | added: DSSO | cross-linked residues | K486 to K106 |

Excerpt of the above (series 2):
| Oligonucleotide | E-score |
| --- | --- |
| AATATAAG | 0.39 |
| ATTACGTC | 0.193 |
